# Results pooled from the literature.
# Parts stem from different laboratories: compare values within a part only.

# Set 1
# Target: RNA binding protein fox-1 homolog 2, RRM domain, GST-SBP tag (RBFOX2, Homo sapiens, UniProt O43251-10, residues 100-194)
# Technique: RNA Bind-n-Seq
# Molecule type: RNA
# Sample: in vitro
# Concentration: 365 nM
# Setting: natural RNA segment, single round, ends assumed
# Reference: no-protein control
# Direction: higher = stronger binding
# All sequences stand within: GGGAGUUCUACAGUCCGACGAUC … UGGAAUUCUCGGGUGCCAA
# Construct (chain): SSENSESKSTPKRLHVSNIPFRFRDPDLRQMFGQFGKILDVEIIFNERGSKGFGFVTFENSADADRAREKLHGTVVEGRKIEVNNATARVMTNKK
Oligonucleotide,RBNS enrichment (R)
CUCCCAGUACCAGCAAGGGGGCCGUAGGUAAUUGUGUGCUUUCUUAAAGAAGUGUAUGUUUUCUGAAAGCAAAAGAAUAAAGGAAGGCCCGUCAUUCAGAGACCACUGUG,2.65
GUAGUUUGUAUAGCCUCAACAACAAUUUUAAAUAAGAUGGAGAAUAAAUUAUUGAGGGGACUAGGCUAUAUGCAUUUGCCUUCAUCCACCCAUGUUUAUUAAGAAUCAUU,1.09
GACCUCUUAGGCUACAAUAAACUGUACCAAACUAAACUGACAGUCCUUCGAUAAUAUGAAACAUUAAUUUACAAGGACCCGUUAGGGCUUCAAUGAUGCUGAGUCUGGAA,0.277
GAGGGUGAGGAUCAGUGUAUUAGAGCAUCUUCGGAGUGUUACCUACCAGUGUUGUCCAGAAGAAGCAGAGACUCAGCGCGGCUGUUGUGAGGUCUGCCUCACACCACCCA,0.975
CACACAGCUGGCACUGGCACACACCUGUCCCAUGCCCACCCUGAGGGAUCAGGAGCAAACAGACCCUGCAAGGUCCUCCAGGCCUGGGGACAGGAAAGCCACUGACCCAG,0.442
CUAAUUGCCAUGUAUAGUAUGUUCGGUUAGAUAACUCACUGUAAACAGACUGUAACUGCCAGGCAGCGCUUAUAAAUCAACCUAACAUUUAUAAGAUUUCCUCUGACUUG,0.301
UCUUAUCUGCUUAGUGGAUUUUAUGCCCUUAUAACUAAGUAAAGAAAAUUUAUGACUACCAAAUAUUUAGGAUACUUAGAAAUAUUUUACUACAUAUGAAUCUGAUAUUC,0.49
GAGGGGUACUUGUUUUCAUUGGAAAACUUUUAUGAUUAAGGGACUCUUUACAAACUGGCAUCUUAAGUUUUAGUGCCAUGUCGCUGUAGUCUGCUGCUUUCCUGGGUGGA,0.505
GUCCGUAUAAACCUGUCAGCACGCACGAGGGUGUCUGUGUUCUAGGAAACGAAUGACUAAUAGCAUUAUGAGUCUUAUGUGAAGACAACACUAUUCUAACACAGGAGAUA,8.79
AAGACAGUGGGCUCCAUGCCUCUUUCCCCUGGGGUUUGCUUCAGGGGCUCCUCCCCGAGGGCUUGCUCCUGGUGGCAGCAGCUGAGAUCAGGACAUCUGUGGCCCUGAGC,0.41
ACAUUAAUUGCAAGGAGCAUAACGUACAGGCUGUAUGUACAAUCCUGGGCAUUGACUCUGUGACAUUUCUAGCAUAUCCAAGGCACCACCAGUGAUUUCUCCUGUUUCUU,0.804
CUUAUGCUAACCACUAUUUUAAAAUGAAAGACAAAGCUCUUUCAGAAGUUUCUCUUGGCUGUUUUAAAAGACAAUUACUGAACAAUAAAAUCCUCUUCCCUGCCCACCCU,0.596

# Set 2
# Target: Interferon regulatory factor 7, full length, phosphomimetic (IRF7, Homo sapiens, UniProt Q92985, residues 1-503, S101K/S471D/S472D/S475D/S476D/S477D/S483D/S484D/S487D)
# Chain of UniProt Q92985 (whole entry, unmodified, looked up): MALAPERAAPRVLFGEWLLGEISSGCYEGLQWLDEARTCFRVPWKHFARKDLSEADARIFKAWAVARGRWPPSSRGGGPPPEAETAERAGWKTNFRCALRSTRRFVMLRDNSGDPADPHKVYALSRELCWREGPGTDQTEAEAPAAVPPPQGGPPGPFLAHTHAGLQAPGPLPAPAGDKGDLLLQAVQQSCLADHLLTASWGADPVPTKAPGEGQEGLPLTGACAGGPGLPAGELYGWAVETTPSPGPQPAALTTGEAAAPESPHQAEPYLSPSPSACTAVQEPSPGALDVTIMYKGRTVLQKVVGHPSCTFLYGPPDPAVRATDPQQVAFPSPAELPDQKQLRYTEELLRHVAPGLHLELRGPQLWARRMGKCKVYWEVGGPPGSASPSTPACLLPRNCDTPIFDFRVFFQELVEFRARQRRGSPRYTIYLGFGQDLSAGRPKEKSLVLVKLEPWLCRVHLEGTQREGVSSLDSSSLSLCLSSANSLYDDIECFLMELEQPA
# Technique: protein-binding microarray
# Molecule type: double-stranded DNA, one strand shown
# Sample: in vitro
# Concentration: 250 nM
# Setting: 60-bp whole probe
# Added: salmon DNA 0.4 mg/ml
# Reference: random background probes
# Direction: higher = stronger binding
# All sequences stand within: GCCTAGCAC … GTCTTGATTCGCTTGACGCTGCTG
Oligonucleotide,log fluorescence [z-score]
ACATTTTTTTCATTATTGTTGTGCTAG,0.932
TTAGATCTCAGCATCGATTAGTGCTAG,0.0264
GGCGCTTTTTTTCCGAGTGAGTGCTAG,0.2
TTGCAGATGACGAAACTGAAGTGCTAG,-0.326
TATCAGGGCATCCCCTTGAAGTGCTAG,-0.551
GCCGGTATCGGGTTTCGGGACGTGCTA,3.21
TTGGGTATCGGTTTCGGTTAGTGCTAG,10.3
TTAGGTATCGACTAACGGTTAGTGCTA,0.362
GACGATTTCAGACTGGAGACGTGCTAG,0.109
GACGGTAACGGTATCGGGACGTGCTAG,0.134
TTAGGTTTCGACTATCGTTTAGTGCTA,5.79
TTAGGCTTCCTTTCCCTTTAGTGCTAG,0.598
TCAGCTCTGTGCATAGGACTGTGCTAG,-0.651
GATCCTTCCCCTCTAGGTTCGTGCTAG,1.62
TTACATCTCAGACTGGATTAGTGCTAG,0.393
TCATCTCAGAATCTCTCACTGTGCTAG,0.575
GACGGTTACGGTTTCGGGACGTGCTAG,4.48
ACATCTCTCTTAAATAGGGACGTGCTA,0.76
TTAGGTGTCCTTTTCCTTTAGTGCTAG,0.693
TTAGAACTGGGGACTGGTTTAGTGCTA,-0.116
TCAGTCTTGGTTCTCAGACTGTGCTAG,1.01
TTAGGACTGGGTTACGGTTAGTGCTAG,0.96

# Set 3
# Target: Histone acetyltransferase KAT6A, winged helix 2, GST fusion (KAT6A, Homo sapiens, UniProt Q92794, residues 85-181)
# Technique: protein binding microarray
# Molecule type: double-stranded DNA, one strand shown
# Sample: in vitro
# Concentration: not given
# Setting: 8-mer, flanks averaged, mean of 2 arrays, mostly near background
# Reference: not given
# Direction: higher = stronger binding
# Residues (chain): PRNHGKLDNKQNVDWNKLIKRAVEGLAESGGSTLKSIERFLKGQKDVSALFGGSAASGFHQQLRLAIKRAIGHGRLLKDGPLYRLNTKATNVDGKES
Oligonucleotide,E-score
TCGCTTAA,-0.0583
GTTGCAAA,0.178
CACGTCTA,-0.136
CCTACCGC,0.153
AGCTTCCT,0.0779
GGATTATA,-0.106
CTCATCCC,-0.0833
CCCCAACG,0.144
AGAGGGGC,0.177
CGGCCCTA,0.0467
CCTACTGA,-0.139
AGACCATC,-0.192
CTATGGTA,-0.137
CTGCTCGC,0.0913
CCATAGCA,-0.112
AAGTGAAC,-0.0995
AATTCACG,-0.0891
AAAACGTA,-0.106
CACATCAA,0.0247
CTAGTGCC,0.0964
CCGTTAGG,0.00685

# Set 4
# Target: Fragile X messenger ribonucleoprotein 1, C-terminal low-complexity region (Fmr1, Mus musculus, UniProt P35922)
# Technique: RNA Bind-n-Seq
# Molecule type: RNA
# Sample: in vitro
# Concentration: 200 nM
# Setting: whole 134-nt RNA, ends assumed
# Added: 150 mM KCl
# Reference: input library
# Direction: higher = stronger binding
# All sequences stand within: GGGAGUUCUACAGUCCGACGAUC … UGGAAUUCUCGGGUGUCAAGG
Oligonucleotide,log2 enrichment
UGGCUUCGAAGUACAGUCUUUGCAGGAUGCAGGAAAUCAGCUUGGUAUGGAGGAUACAUCUCUGAGCUCUGGAAUGCUCACCCAGAACAC,-0.463
ACCAUGCAGGUGGGCAUCUUUGGGAAGUGGGGCAAGGGGGGGAUAGGGAGGGGGGUAACACUUAAAGAACAGGUGGUCCCAGGUCGUUUC,0.644
GAAAGAAGUAAAAACAAAUGGAAAUGCUUCGGAUAGUGGCAGGGGUGGGGGUUGCUAAGGAAAGGGUGGGAUGGGAGUGGGUAAAGAGUU,-0.29
UCAAGUCCUGUGCUACACAUCGUAUGUACCGAAUCGGCCGGGGCCGGGGCCGGGAAAGUAUUAUGUUACGCCGUUCGGAUCUGCACUUCC,-0.259
UGGGAGGUGGAUUUUGUUUAUUUUUUUAGCUCAUUUCCAGGGGUGGGAAUUUUAUUUUAAUAUGUGUCAUGAAUAAAGUUGUUUUUGAAA,0.186
GCAGGAAGUAAAAACAAAUGGAAAUGCUUCGGAUAGUGGCAGGGGUGGGGGUUGCUAAGGAAAGGGUGGGAUGGGAGUGGGUAAGGAGUU,-0.127
GUCCUGUGCUACACAUCGUAUGUACCGAAUCGGGGAAAAAAAGGGGAAAGGGGAGGGGAAAGUAUUAUGUUACGCCGUUCGGAUCUGCAC,0.443
UCAAGUCCUGUGCUACACAUCGUAUGUACCGAAUCGGGUUUGGUUUGGUUUGGGGAAAGUAUUAUGUUACGCCGUUCGGAUCUGCACUUC,-0.453
GUCCUGUGCUACACAUCGUAUGUACCGAAUCGGAAAAAAAGGUUUUUGGUUUUUUUGGAAAGUAUUAUGUUACGCCGUUCGGAUCUGCAC,-1.22
UCAAGUCCUGUGCUACACAUCGUAUGUACCGAAUCGGUUUGGAAAAAAAGGAGGAAAGUAUUAUGUUACGCCGUUCGGAUCUGCACUUCC,-0.353
UUCUAUUUCUUUCCUUAAUGUUUUUUUCUUCCCUACUGUUUUAUCCUCCCUUUGCUUUGGAAGGAUAUUGCUGCAUAUCGAGCUAAAGGA,0.0967
CUGUGCUACACAUCGUAUGUACCGAAUCGGAAAAAAAGGAAAAAAAGGGGAAAAAAAGGGGAAAGUAUUAUGUUACGCCGUUCGGAUCUG,-0.827
UGGGAGGUGGAUUUUGUUUAUUUUUUUAGUUCAUUUCCAGGGGUGGGAAUUUUUUUUUAAUAUGUGUCAUGAAUAAAGUUGUUUUUGAAA,0.133
CCUGUGCUACACAUCGUAUGUACCGAAUCGGGAAAAAGGGAAAAAAAGGGUUUUUUUGGGAAAGUAUUAUGUUACGCCGUUCGGAUCUGC,-0.815
